Published values collected from several papers.
Each numbered part is a random draw from the data of one study; scales do not carry over between parts.

Block 1 — technique: universal PBM; form: double-stranded DNA, one strand shown; medium: in vitro; tested at: 600 nM; direction: higher = stronger binding
Target: Sal-like protein 4, full length isoform A (SALL4, Homo sapiens, UniProt Q9UJQ4, residues 1-1053)
Chain of UniProt Q9UJQ4 (whole entry, looked up): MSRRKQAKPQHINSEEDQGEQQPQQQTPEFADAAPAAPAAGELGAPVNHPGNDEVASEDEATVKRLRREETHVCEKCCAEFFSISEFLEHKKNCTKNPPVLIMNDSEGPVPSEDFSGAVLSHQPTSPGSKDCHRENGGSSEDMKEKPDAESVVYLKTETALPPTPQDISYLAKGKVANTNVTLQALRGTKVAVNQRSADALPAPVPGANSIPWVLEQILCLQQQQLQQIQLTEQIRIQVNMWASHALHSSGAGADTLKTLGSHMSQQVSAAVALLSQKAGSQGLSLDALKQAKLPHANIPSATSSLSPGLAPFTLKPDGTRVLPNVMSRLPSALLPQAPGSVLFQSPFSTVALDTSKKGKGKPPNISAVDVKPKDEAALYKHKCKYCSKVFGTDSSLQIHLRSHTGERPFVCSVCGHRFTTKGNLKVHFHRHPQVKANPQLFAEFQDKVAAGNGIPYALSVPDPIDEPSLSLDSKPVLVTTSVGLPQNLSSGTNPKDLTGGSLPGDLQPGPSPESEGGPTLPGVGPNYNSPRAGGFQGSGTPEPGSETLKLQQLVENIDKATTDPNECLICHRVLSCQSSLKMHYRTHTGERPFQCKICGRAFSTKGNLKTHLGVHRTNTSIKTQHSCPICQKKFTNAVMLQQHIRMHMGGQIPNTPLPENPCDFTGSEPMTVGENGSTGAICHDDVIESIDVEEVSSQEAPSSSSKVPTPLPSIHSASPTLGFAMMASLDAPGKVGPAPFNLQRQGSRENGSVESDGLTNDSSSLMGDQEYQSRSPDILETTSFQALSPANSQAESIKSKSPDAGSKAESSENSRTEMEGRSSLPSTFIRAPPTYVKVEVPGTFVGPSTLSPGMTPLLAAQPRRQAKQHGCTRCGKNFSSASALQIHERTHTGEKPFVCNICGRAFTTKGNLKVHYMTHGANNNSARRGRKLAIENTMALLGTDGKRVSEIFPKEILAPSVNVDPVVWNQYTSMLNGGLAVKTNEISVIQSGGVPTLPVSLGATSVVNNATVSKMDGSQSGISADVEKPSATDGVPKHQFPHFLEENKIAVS
Setting: 8-mer, flanks averaged, mean of replicates
Sequence	E-score
CAGCTTCA	0.109
CGGAACGC	-0.268
TACCTGCA	-0.0739
GGGGCCAC	-0.331
AACTACCA	0.125
AGTCACAC	-0.0197
CCCGATAG	-0.118
CAGCCATC	-0.221
CCACTTAG	-0.0365
ATCAGTTG	0.105
AAATGATC	0.0854
AGAAGGAC	-0.0864
ATTTGCAA	0.234
ATGTAAAG	0.182
ACCCTAGA	-0.0711
AGGGATGC	-0.184
GAAGCTTA	0.124
CGGGCTTA	-0.197
AATTCTCG	0.0995

Block 2 — technique: RNA Bind-n-Seq; form: RNA; medium: in vitro; tested at: not given; setting: RNA with constant flanks, ends assumed; relative to: input RNA pool; direction: higher = stronger binding
Target: RING finger protein unkempt homolog, zinc fingers 1-6, GST-SBP tag (UNK, Homo sapiens, UniProt Q9C0B0, residues 30-357)
Chain of UniProt Q9C0B0 (30-357, looked up): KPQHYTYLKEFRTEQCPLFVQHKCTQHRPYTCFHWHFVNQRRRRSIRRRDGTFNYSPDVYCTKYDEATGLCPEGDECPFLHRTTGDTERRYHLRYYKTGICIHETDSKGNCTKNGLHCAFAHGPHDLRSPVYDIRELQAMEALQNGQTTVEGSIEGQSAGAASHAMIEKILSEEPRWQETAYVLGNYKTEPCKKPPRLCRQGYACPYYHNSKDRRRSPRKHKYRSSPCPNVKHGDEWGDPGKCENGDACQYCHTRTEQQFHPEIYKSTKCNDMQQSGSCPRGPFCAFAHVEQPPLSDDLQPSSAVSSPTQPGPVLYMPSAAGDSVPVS
Sequence	bound/input enrichment
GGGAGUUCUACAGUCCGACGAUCAAGCCAUUCCCAGAGCAUCUCUACCAGCGUGUCAGGAUCAGAAGCAAGGUUUUCGGGUUGCACCGUGUUUCCAGGGGCAUGUACGAUGGGCCUGUGUACGAGGUGCCAGCUACACCCAAACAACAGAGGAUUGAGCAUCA	0.102 ratio
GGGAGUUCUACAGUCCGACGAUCCCUACUAUAAACAACUCAGGGCAGUAUUCUCGAUAUCCUUACAGUAACCUAAAUCAGGGAUCCGUUAACAAUACAGGGAUGAAUCAAAAUUUAGGCCUUACAAAUAAUACUCCAAUGAAUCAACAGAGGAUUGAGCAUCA	1.11 ratio
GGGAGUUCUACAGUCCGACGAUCUUUGGCAUCACCCAGCGACCAGCGUACAUUAACAUGGUACCUAGCCUGUCGCAGUUCACCCGCAUUUACACACCUUUGGCCAACAUUUCUUCUGAGUAUCCAAUGCAAAGAUCCAUGCCACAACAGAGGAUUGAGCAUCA	0.215 ratio
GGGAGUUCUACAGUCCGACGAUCUUACAGUCAUUGAUGGACUCUAUUUUUUUAUUAUUACUUGGACCUUGGUCGUUUUUAUACCCGCAAAAAAAUGUCUUGUUUUAAUUUGUGUUUUUUGGGGGGGCGGGUGGGCGGGCGGGACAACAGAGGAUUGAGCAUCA	1.32 ratio
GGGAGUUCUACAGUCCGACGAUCUCCAUGGAUUCUGAGGUCUUGGAGAUGUCACCUGAAAAGUCAGAUGGAAUAGUGGAGGGGACCGAUGUAAAUGGACCAAAAGCACAGCUGAUGCUGCGGUACCCAGAUGGAAAAAGGGAACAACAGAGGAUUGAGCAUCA	0.486 ratio
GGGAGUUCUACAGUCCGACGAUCCAAGAUAAAUUUCAGACCAUGUCUGACCAGAUCAUUGGGAGAAUUGAUGAUAUGAGCCGUCGCAUUGAUGAUCUGGAAAAGAAUAUCGCGGACCUCAUGACACAGGCUGGGGUGGAAGAACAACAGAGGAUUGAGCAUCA	0.464 ratio
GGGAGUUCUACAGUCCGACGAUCGUCCAAGCACAGUGUGACUGCUGUUUUUUAUACUGGCAUCGCGCUGUCUUCCCGAUUUAUUCCGAUGAUGUAUAUGAAAAUGCUGUCGAUGCAGCCAGAUUACAUUACAUGUUCAGUGCUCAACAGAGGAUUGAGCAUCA	0.166 ratio
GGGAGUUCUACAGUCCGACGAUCGAAACUCCCCAUUGUCACUGAGAACCACCAAAUCUGACUUUUACAUUUGGUCUCAGAAUUCCGGUUCCUGCCCUGUUGGUUUUUUUUUUUUUUUUUUAAACAGUUUUCAAAAGUUCUUAACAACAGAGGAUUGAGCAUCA	1.31 ratio

Block 3 — technique: protein-binding microarray; form: double-stranded DNA, one strand shown; medium: in vitro; tested at: 250 nM; setting: 60-bp whole probe; together with: salmon DNA 0.4 mg/ml; relative to: random background probes; direction: higher = stronger binding; shared flanks, not repeated: GCCTAGCAC … GTCTTGATTCGCTTGACGCTGCTG
Target: Interferon regulatory factor 7, full length, phosphomimetic (IRF7, Homo sapiens, UniProt Q92985, residues 1-503, S101K/S471D/S472D/S475D/S476D/S477D/S483D/S484D/S487D)
Construct (chain): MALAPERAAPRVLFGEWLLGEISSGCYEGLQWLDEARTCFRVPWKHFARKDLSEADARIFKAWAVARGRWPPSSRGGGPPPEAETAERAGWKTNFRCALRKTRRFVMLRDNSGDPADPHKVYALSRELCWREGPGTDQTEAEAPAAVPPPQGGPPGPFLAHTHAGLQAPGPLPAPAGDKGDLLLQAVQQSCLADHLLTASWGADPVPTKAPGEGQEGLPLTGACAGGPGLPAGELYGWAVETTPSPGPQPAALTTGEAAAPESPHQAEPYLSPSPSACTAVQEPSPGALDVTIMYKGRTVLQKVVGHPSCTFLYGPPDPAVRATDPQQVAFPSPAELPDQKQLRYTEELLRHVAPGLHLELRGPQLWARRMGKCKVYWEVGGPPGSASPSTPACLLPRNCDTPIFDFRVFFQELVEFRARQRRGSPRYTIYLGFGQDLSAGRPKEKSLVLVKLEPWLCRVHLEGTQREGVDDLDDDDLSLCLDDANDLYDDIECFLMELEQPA
Sequence	log fluorescence [z-score]
TTAGAGCTGGGGACTGGATTAGTGCTA	-0.702
GACGGTTCCGGGTATCGGGACGTGCTA	1.1
GACGATATCAGGTTTCGAGACGTGCTA	3.58
TGTGGGTTTCGGTGTGGGAGGTGCTAG	2.22
TTGTGTCAACTTTCTCTGCTCGTGCTA	0.053
TTAGAACTCAGTTTCGATTAGTGCTAG	8.83
TTACTTCCCAATAATCTTTTCGTGCTA	2.13
GAACATTTCCTTTACATTCCGTGCTAG	1.11
GTAGATGCCTTTCTCTTGGAGTGCTAG	-0.294
GTCTCTGTTCTTTTCAGTCCGTGCTAG	2.69
TTAGGTTTCGATATCGGTTAGTGCTAG	12.2
CAAAGAAAAAGAAAAAAAAAGGTGCTA	0.587
TCCATTTTCTGAATGCTACTGTGCTAG	1.7
CACCATCTAGTTCTGCTTTGGTGCTAG	0.699
TTAGGACTGGGTCTGGGTTAGTGCTAG	-0.189
GACGGTTCCCTTTTCCCGACGTGCTAG	3.68
TTAGATTTCATTTTCGATTAGTGCTAG	4.24
TACCTTAGGTTTTCTGGTTCCGTGCTA	0.524
TTCTGATTGAATCTCCCATTGTGCTAG	-0.00876

Block 4 — technique: protein-binding microarray; form: double-stranded DNA, one strand shown; medium: in vitro; tested at: not given; direction: higher = stronger binding
Target: Protein max, full length (MAX, Homo sapiens, UniProt P61244-2, residues 1-151)
Setting: k-mer, scored over probes, only values ≥0.25
Sequence	E-score
CAAGCACA	0.253
ACGGCGTG	0.413
CGCGTGCA	0.45
CCAGCACG	0.351
CAGCATGA	0.412
ACGCGTCA	0.324
GACACGCA	0.302
ACGCTCGC	0.256
CGTGGGGA	0.289
GTGTAGAA	0.276
GCTCGTGA	0.268
ATGCTTCC	0.36
CGTGAAAG	0.253
CACATTGC	0.384
CCTCGAGG	0.279
CATGAGCG	0.251
GTCCACGA	0.279
AGAGCATG	0.401
CAGTCACG	0.42
CATGATGC	0.274
AGCCACGA	0.308
AAGCGTGC	0.42
ACATGCCG	0.403
ACCTGTTC	0.258
ACGCCCGA	0.279

Block 5 — technique: protein binding microarray; form: double-stranded DNA, one strand shown; medium: in vitro; tested at: not given; relative to: not given; direction: higher = stronger binding
Target: Histone acetyltransferase KAT6A, winged helix 1, GST fusion (KAT6A, Homo sapiens, UniProt Q92794, residues 1-85)
Setting: 8-mer, flanks averaged, mean of 2 arrays, mostly near background
Target sequence (chain): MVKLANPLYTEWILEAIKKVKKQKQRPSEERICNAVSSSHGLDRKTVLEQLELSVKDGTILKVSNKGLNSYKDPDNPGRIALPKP
Sequence	E-score
CCCCGGGC	0.264
ACTCGCGG	0.311
GTTCACAA	-0.113
GGCCTATA	0.0132
GCCTCGCC	0.0938
CTAGGGAC	0.04
CGTGCGAC	0.296
GGATAGTA	-0.0192
TAGAGGCA	-0.224
CCGGAATA	-0.0503
AAGATCCA	-0.226
CCGGTAAC	0.24
ATCCTTTA	-0.21
ACTTGCAA	-0.181
AATCTTAA	-0.117
TTACATAA	-0.119
GAGCACAC	-0.205
TCACGAGA	-0.279
GATTGATA	-0.236
TAGGTCAA	-0.265
GAAGTGGA	-0.0422
GGATCTTA	-0.0854

Repeated from above (block 3):
Sequence	log fluorescence [z-score]
GACGATATCAGGTTTCGAGACGTGCTA	3.58
TCCATTTTCTGAATGCTACTGTGCTAG	1.7
TTGTGTCAACTTTCTCTGCTCGTGCTA	0.053
CAAAGAAAAAGAAAAAAAAAGGTGCTA	0.587
TTCTGATTGAATCTCCCATTGTGCTAG	-0.00876
TTAGGTTTCGATATCGGTTAGTGCTAG	12.2
TTAGAACTCAGTTTCGATTAGTGCTAG	8.83
TTACTTCCCAATAATCTTTTCGTGCTA	2.13
TTAGATTTCATTTTCGATTAGTGCTAG	4.24
TTAGAGCTGGGGACTGGATTAGTGCTA	-0.702
GACGGTTCCGGGTATCGGGACGTGCTA	1.1
CACCATCTAGTTCTGCTTTGGTGCTAG	0.699
GAACATTTCCTTTACATTCCGTGCTAG	1.11
GACGGTTCCCTTTTCCCGACGTGCTAG	3.68
